Published values of several laboratories.
Compare with care: the assays were run in different laboratories. Numbers after ± are the reported error.

SMILES | cell line | observed | method | time | with | IC50
COc1cccc2c1C(=O)N1CCc3c([nH]c4ccccc34)C1N2Cc1ccc(C(=O)NCCCC(=O)NO)cc1 (racemic) | HCT-116 | cell viability | CCK-8 |  |  | > 10000 nM
COc1cc(C(=O)N2CCC(N3CCN(C)CC3)CC2)ccc1Nc1ncc2c(n1)N(C1CCCC1)c1ccccc1C(=O)N2C | 797 NUT midline carcinoma cells | viability | CellTiter-Glo | 3 days |  | 664 ± 14 nM
Cc1cnc(C#Cc2cccc(-c3nn(-c4nc(C(=O)O)cs4)c(CCC4CC4)c3Cc3ccc(S(N)(=O)=O)c(F)c3)c2)s1 | HEK293T | lactate production |  | 1 h |  | 400 nM
O=C(O)c1cc(Cl)cc(N2C(=O)c3ccc4c5c(ccc(c35)C2=O)C(=O)N(c2cc(Cl)cc(C(=O)O)c2Cl)C4=O)c1Cl | PC-12 | neurite outgrowth |  | 72 h | 500 pM NGF | > 100000 nM
CC(C)(N)c1nc2cc(-c3ccnc(F)c3)sc2c(=O)[nH]1 | COLO 205 | cell growth | MTT |  |  | 1070 ± 75 nM
C=CC(=O)N1CCC(c2cc(Nc3cc4n(n3)CCOC4)c3ncnn3c2)C1 (single isomer, unassigned) | Ramos | calcium flux | FLIPR | 2 h preincubation | anti-IgM | > 1000 nM
Cc1cnc(Nc2ccc(N3CCN(C)CC3)cc2)nc1Nc1cccc(NS(=O)(=O)C(C)(C)C)c1 | UKE1 | cell growth | CellTiter Blue | 72 h |  | 130 nM
CN1c2ccc(F)cc2C(=O)N2CCc3c([nH]c4ccc(OCc5cccc(C(=O)NO)c5)cc34)C21 (stereo not drawn) | MCF7 | cell viability | CCK-8 |  |  | > 20000 nM
NS(=O)(=O)c1ccc(Cc2c(-c3ccc(F)c(C#CC4CC4)c3)nn(-c3nc(C(=O)O)cs3)c2CC2CC2)cc1F | HEK293T | lactate production |  | 1 h |  | 600 nM
COc1cc(C(=O)N2CCC(N3CCN(C)CC3)CC2)ccc1Nc1ncc2c(n1)N(C1CCC1)c1ccccc1C(=O)N2C | 797 NUT midline carcinoma cells | viability | CellTiter-Glo | 3 days |  | 116 ± 1 nM
CC(C)[C@H](N)c1nc2cc(-c3cc[nH]c3)sc2c(=O)[nH]1 | COLO 205 | cell growth | MTT |  |  | > 10000 nM
Cc1n[nH]c(C)c1CCOC(=O)c1cccc2c1oc(=O)n2C | HS27 | cytotoxicity |  |  |  | > 100000 nM
O=C(O)c1ccc(N2C(=O)c3ccc4c5c(ccc(c35)C2=O)C(=O)N(c2ccc(C(=O)O)c(Br)c2)C4=O)cc1Br | PC-12 | neurite outgrowth |  | 72 h | 500 pM NGF | 15200 nM
CC(=NN=c1[nH]c2cc(F)c(F)cc2n1C)c1ccc(F)cn1 | LM2 | viability | MTT | 72 h |  | 40 nM
CN(C)C(=O)Cn1cc(-c2ccc(-c3cncc4ccncc34)cc2)cn1 | HBL1 | cell growth | viability |  |  | < 1000 nM
CN1CCN(c2cc(C(=O)Nc3ccc4c(c3)-c3c(c(C(N)=O)nn3-c3ccc(F)cc3)CC4)c(Cl)cn2)CC1 | human PBMC | TNF-α production |  | 2 h preincubation |  | 40 to 70 nM
Cc1cnc(C#Cc2cccc(-c3nn(-c4nc(C(=O)O)cs4)c(CC4CC4)c3Cc3ccc(S(N)(=O)=O)c(F)c3)c2)o1 | HEK293T | lactate production |  | 1 h |  | 1600 nM
Nc1ccc(Cl)c2cccnc12 | HFF | cell viability | calcein-AM |  |  | 4770 nM
C[C@H](N)c1nc2cc(-c3ccncc3F)sc2c(=O)[nH]1 | COLO 205 | cell growth | MTT |  |  | 515 ± 15.4 nM
COc1cc2ncnc(Oc3ccc(NC(=O)c4c5n(n(-c6ccc(F)cc6Cl)c4=O)CCCC5)cc3F)c2cc1OC | BaF3 TEL-AXL | cell viability | CCK-8 | 48 h |  | 4.4 ± 2.2 nM
CN[C@H](c1nc2cc(-c3ccnc(F)c3)sc2c(=O)[nH]1)C(C)C | COLO 205 | cell growth | MTT |  |  | 8840 ± 265 nM
Cc1ccc(-n2nc3c(=O)[nH]nc(N)c3c2-c2oc3ccc(C)cc3c2C)cc1 | SNU-16 (FGFR2 amplified) | cell proliferation |  |  |  | > 1000 nM
COc1cc2ncc(-c3cccc(NC4CCNC4)n3)n2cc1-c1cnn(C)c1 (racemic) | MOLM-14 FLT3 F691L | cell growth |  |  |  | 667 nM
NS(=O)(=O)c1ccc(Cc2c(C3CCCC3)nn(-c3nc(C(=O)O)cs3)c2-c2ccccc2)cc1 | HEK293T | lactate production |  | 1 h |  | > 50000 nM
CC[C@@H](C)[C@H](N)C(=O)N1Cc2ccc(F)cc2C1 | MV4-11 | cell viability | CellTiter-Glo |  |  | 200 nM
CCOc1cc(C(C)(C)C)ccc1C1=N[C@H](c2ccc(Cl)cc2)[C@H](c2ccc(Cl)cc2)N1C(=O)N1CCN(CC(=O)NCCOCCOCCOCCNC(=O)CN2CCN(C(=O)N3C(c4ccc(C(C)(C)C)cc4OCC)=N[C@H](c4ccc(Cl)cc4)[C@@H]3c3ccc(Cl)cc3)CC2=O)C(=O)C1 | HCT-116 p53 wild type | cell growth | CCK-8 |  |  | 8700 ± 2200 nM
O=C(NCCCl)Oc1ccc(Cl)c2cccnc12 | HUVEC | cell proliferation | [3H]thymidine incorporation |  |  | 2110 ± 250 nM

Excerpt of the above:
SMILES | cell line | observed | method | time | with | IC50
CN[C@H](c1nc2cc(-c3ccnc(F)c3)sc2c(=O)[nH]1)C(C)C | COLO 205 | cell growth | MTT |  |  | 8840 ± 265 nM
Cc1ccc(-n2nc3c(=O)[nH]nc(N)c3c2-c2oc3ccc(C)cc3c2C)cc1 | SNU-16 (FGFR2 amplified) | cell proliferation |  |  |  | > 1000 nM
COc1cc2ncc(-c3cccc(NC4CCNC4)n3)n2cc1-c1cnn(C)c1 (racemic) | MOLM-14 FLT3 F691L | cell growth |  |  |  | 667 nM
NS(=O)(=O)c1ccc(Cc2c(C3CCCC3)nn(-c3nc(C(=O)O)cs3)c2-c2ccccc2)cc1 | HEK293T | lactate production |  | 1 h |  | > 50000 nM
